Assay results pooled from the literature.
Numbered parts are unrelated; each lists some results of a single study.

Study 1
Target: Sal-like protein 4, full length isoform B (SALL4, Homo sapiens, UniProt Q9UJQ4-2, residues 1-616)
Method: universal PBM
Form: double-stranded DNA, one strand shown
Sample: in vitro
Tested at: not given
Setting: 8-mer, flanks averaged, mean of replicates
Reading: higher = stronger binding
Strand | E-score
CGGCCTTC | -0.256
AGGCTTAA | 0.105
CCGGTCTC | -0.322
ACGTTTGC | -0.055

Study 2
Target: RNA binding protein fox-1 homolog 2, RRM domain, GST-SBP tag (RBFOX2, Homo sapiens, UniProt O43251-10, residues 100-194)
Method: RNA Bind-n-Seq
Form: RNA
Sample: in vitro
Tested at: 365 nM
Setting: natural RNA segment, single round, ends assumed
Baseline: no-protein control
Reading: higher = stronger binding
Shared flanks, not repeated: GGGAGUUCUACAGUCCGACGAUC … UGGAAUUCUCGGGUGCCAA
Residues (chain): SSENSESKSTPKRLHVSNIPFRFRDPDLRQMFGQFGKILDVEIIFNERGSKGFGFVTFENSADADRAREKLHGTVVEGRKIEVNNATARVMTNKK
Strand | RBNS enrichment (R)
GCAGCUUGGGCUGACCCAGCAUCUCUGCAAGAUUUCCACCUGCUGGGCUGCCAGAGAGGUUUGUAGCCCGGCCCUGACUGCAUCCUCCCCAUCCCUGGGGCAACAUUCCC | 0.857
UUUUUAAAACUUUGAUUGCAUGAUGUAUUUUUUUUUUAGAAAGUUAUUGUUUGAGAAUAAUGUCUUUUUAUACCAGGAAAAUAGUUAUCCUGAAUGACGUUGAAAACUCC | 15.8
UUCUUCAAAAGACGCAAUUGCAAUAGUAUUUUUUAGAUUUUAUCCAAGAAGUUUUUUGGGCAAAAAUCUUGGAUCAUUUUUAUGUAGCAUGAUUUUCCUUGGGAUGCAAA | 6.14
GCUAAAGUCUCCUCAGUGUGCAGCCAGAUUCCUGGGGACUGCUGAGUGUGGUUACAGGCUGCAUUUCAGACAAUGACCAGGUUUACUUUUCAGAUCACAAAGCAAACAGU | 0.316
UUACUAAAACUGUGGCUUAGUAGUAAGCUGAGGGCUAAAUGAGAGACUGCUAUUCUAAGAGCAUCAGGGCUCUGAGGGCCAAAGAAGCAAUGGGAGUCCUGAGCUAGUAU | 0.547
UCCAGCAUGCACCAACUGUGCAGAACUUGGCUCGGUAACUUUGCGUGGAAAAAUAAAGUACAUUUUGAAGUAUCUUGAGGGUUGGGUCAAUUGAGACAUUUCUAGCAUUA | 8.45

Study 3
Target: Interferon regulatory factor 3, full length, phosphomimetic (IRF3, Homo sapiens, UniProt Q14653, residues 1-427, S386D/S396D/S398D/S402D/T404D/S405D)
Method: protein-binding microarray
Form: double-stranded DNA, one strand shown
Sample: in vitro
Tested at: 2540 nM top
Setting: 60-bp whole probe
With: salmon DNA 0.4 mg/ml
Baseline: random background probes
Reading: higher = stronger binding
Shared flanks, not repeated: GCCTAGCAC … GTCTTGATTCGCTTGACGCTGCTG
Residues (chain): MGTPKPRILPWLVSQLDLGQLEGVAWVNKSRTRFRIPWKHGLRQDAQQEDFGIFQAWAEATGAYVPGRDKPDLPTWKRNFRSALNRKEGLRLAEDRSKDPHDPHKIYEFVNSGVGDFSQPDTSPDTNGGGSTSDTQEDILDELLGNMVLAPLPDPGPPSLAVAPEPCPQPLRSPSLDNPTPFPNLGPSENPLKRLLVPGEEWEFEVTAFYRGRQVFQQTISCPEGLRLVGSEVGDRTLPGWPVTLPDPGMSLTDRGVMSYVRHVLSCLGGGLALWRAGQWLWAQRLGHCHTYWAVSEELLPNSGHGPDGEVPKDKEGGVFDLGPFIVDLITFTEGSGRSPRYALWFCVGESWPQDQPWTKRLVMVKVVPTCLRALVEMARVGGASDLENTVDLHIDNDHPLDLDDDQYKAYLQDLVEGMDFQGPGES
Strand | fitted relative affinity [z-score]
GACGAATTGGGGTTTCGAGACGTGCTA | 0.641
GACGGTTTCTACTATCGGGACGTGCTA | 1.74
GACGATTCCAGTTTAGAGACGTGCTAG | 1.47
TTAGAACGGAGTTTCGATTAGTGCTAG | 2.72
CGGCCTCTAGGTTTTCTGAAGTGCTAG | -0.74

Other studies, line by line
Substance | target | assay | test system | conditions | scale | measurement | value
PhoQ, residues 284 288 289 292 302 303 SLANKL | PhoP, residues 12 14 15 18 19 LHTVM (Escherichia coli, UniProt P23836) | Sort-seq, refers to: YFP reporter | E. coli | PhoQ-PhoP variant library, with: 10 µM Mg2+ | baseline: high Mg2+ state, higher = stronger signaling | fold induction | 11.2

Excerpt of the above (study 3):
Strand | fitted relative affinity [z-score]
GACGGTTTCTACTATCGGGACGTGCTA | 1.74
